Measured values from different studies.
Every numbered part comes from another study and shows a few of its results, in no order. Several values in a cell are separate wells, animals, samples, runs or records. Positions count from the first letter of the parent shown.

Block 1 — method: universal PBM; form: double-stranded DNA, one strand shown; matrix: in vitro; tested at: 600 nM; reading: higher = stronger binding
Target: Sal-like protein 4, full length isoform A (SALL4, Homo sapiens, UniProt Q9UJQ4, residues 1-1053)
Sequence of UniProt Q9UJQ4 (whole entry, looked up): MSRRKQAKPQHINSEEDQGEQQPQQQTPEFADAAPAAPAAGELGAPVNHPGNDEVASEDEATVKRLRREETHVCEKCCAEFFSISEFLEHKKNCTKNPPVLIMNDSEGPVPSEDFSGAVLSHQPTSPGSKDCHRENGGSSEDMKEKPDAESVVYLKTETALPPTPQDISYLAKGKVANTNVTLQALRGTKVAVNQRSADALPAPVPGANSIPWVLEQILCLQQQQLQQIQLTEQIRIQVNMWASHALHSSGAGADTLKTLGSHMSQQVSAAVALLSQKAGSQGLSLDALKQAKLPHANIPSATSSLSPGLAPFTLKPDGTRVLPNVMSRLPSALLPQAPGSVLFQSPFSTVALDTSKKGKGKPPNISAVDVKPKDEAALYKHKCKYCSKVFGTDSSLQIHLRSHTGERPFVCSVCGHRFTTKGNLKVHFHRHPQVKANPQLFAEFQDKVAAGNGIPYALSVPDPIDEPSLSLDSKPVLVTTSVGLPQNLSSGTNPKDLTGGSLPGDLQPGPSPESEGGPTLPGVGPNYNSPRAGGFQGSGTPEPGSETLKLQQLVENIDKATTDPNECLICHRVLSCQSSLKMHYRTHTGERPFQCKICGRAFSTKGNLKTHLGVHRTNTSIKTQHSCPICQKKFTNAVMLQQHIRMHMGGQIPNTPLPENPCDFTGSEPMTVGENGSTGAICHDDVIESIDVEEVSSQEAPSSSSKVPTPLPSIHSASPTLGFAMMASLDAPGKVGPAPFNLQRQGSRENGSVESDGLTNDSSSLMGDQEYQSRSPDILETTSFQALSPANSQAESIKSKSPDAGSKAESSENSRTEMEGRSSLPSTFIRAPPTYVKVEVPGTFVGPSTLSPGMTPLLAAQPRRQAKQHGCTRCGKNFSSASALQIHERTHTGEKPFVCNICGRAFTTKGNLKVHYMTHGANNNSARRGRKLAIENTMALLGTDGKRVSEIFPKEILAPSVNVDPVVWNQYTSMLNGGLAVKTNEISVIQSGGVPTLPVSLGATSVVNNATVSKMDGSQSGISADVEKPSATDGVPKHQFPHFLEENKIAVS
Setting: 8-mer, flanks averaged, mean of replicates
The E-score of `ATGCGGGG` is reported as -0.204.
`TCATCCCA` gave an E-score of 0.0117.
`CGCTTAGA` has an E-score of -0.202.
For `AAAGGCAA`, the E-score was 0.168.
The E-score of `AGATTTCA` is reported as 0.192.
For `AATTATAA`, the E-score was 0.428.
For `GGGATACA`, the E-score was 0.0316.
`GCTGAGAA` gave an E-score of -0.185.
`ACCCTGCG` gave an E-score of -0.196.
The E-score of `TAAGGCGA` is reported as 0.0389.
`AAGCACGC` has an E-score of -0.146.
The E-score of `CCTGGTTA` is reported as -0.129.
`ATGCTAAG` gave an E-score of 0.147.
For `AGAGGAAG`, the E-score was -0.0866.
`GGAATAGA` has an E-score of 0.0921.
For `CATTACGC`, the E-score was -0.0449.
`CAACCTTA` has an E-score of 0.106.
The E-score of `ATCCTCAC` is reported as 0.011.
For `CACCATGA`, the E-score was -0.122.

Block 2 — method: protein binding microarray; form: double-stranded DNA, one strand shown; matrix: in vitro; tested at: not given; baseline: not given; reading: higher = stronger binding
Target: Histone acetyltransferase KAT6A, both winged helices, GST fusion (KAT6A, Homo sapiens, UniProt Q92794, residues 1-181)
Setting: 8-mer, flanks averaged, mean of 2 arrays, mostly near background
Residues (chain): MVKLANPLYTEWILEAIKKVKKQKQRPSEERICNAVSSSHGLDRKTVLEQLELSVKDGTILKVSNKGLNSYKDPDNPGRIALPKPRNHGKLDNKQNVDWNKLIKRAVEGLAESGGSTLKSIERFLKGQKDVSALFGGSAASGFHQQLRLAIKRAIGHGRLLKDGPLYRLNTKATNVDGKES
With `CTCCGCTA` the E-score was 0.194.
`CCCATCTA` has an E-score of -0.133.
`GCATGGTA` has an E-score of 0.0129.
With `GACTACCA` the E-score was -0.0721.
For `CGGCGCTA`, the E-score was 0.36.
With `GATTCAAA` the E-score was -0.0489.
The E-score of `GTGGTATA` is reported as -0.118.
For `AGTTTGCC`, the E-score was -0.0241.
The E-score of `GGATGCGA` is reported as 0.15.
For `CACCTTCA`, the E-score was -0.0549.
With `CGATCTAG` the E-score was 0.0308.

Block 3 — method: DHFR PCA, deep sequencing; matrix: yeast; added: (+)-ABA 710 µM; baseline: wild-type fitted maximum; reading: higher = stronger binding
Target: ABI1, truncated, D143A, DHFR fusion (Arabidopsis thaliana)
Setting: methotrexate growth selection, single substitutions
Starting sequence: PYL1, truncated, DHFR fusion (Arabidopsis thaliana); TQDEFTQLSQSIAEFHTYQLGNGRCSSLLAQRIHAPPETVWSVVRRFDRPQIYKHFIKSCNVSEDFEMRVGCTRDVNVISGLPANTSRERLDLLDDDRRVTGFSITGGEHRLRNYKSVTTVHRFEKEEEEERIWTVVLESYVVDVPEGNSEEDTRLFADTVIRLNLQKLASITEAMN
For `E139D`, “relative binding score” read 55.3%.
Under “relative binding score”, `I133L` is recorded as 112%.
Under “relative binding score”, `P146D` is recorded as 46.6%.
For `V145I`, “relative binding score” read 98.9%.
Under “relative binding score”, `E129H` is recorded as 108%.
For `S117M`, “relative binding score” read 27.4%.
`M68Y`: “relative binding score” 95.1%.
For `M176Q`, “relative binding score” read 103%.
Under “relative binding score”, `P50T` is recorded as 19.6%.
`V62E`: “relative binding score” 52%.
`K58D` — result for “relative binding score”: 99.4%.
For `R69N`, “relative binding score” read 93.1%.
`T135F` — result for “relative binding score”: -1.26%.
`L82G`: “relative binding score” 70.4%.

Block 4 — target: CCND3, cyclin fold, Cln2 fusion (human); method: yeast growth competition, sequencing; matrix: yeast; setting: weak parent motif; baseline: not given; reading: higher = stronger binding
Starting sequence: PLK5 docking peptide (human); IFRKVGQRLLTQC; partner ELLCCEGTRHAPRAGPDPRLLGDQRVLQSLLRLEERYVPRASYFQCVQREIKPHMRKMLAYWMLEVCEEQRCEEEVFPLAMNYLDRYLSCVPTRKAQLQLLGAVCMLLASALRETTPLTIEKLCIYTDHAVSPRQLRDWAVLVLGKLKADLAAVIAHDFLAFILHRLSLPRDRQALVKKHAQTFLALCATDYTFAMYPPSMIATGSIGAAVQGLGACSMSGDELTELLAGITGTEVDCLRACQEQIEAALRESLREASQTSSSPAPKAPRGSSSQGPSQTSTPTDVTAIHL
Under “normalised enrichment score”, `R3A` is recorded as 0.191.
For `L9A`, “normalised enrichment score” read 0.53.
`I1A` — result for “normalised enrichment score”: 0.694.
Under “normalised enrichment score”, `F2A` is recorded as 0.781.
For `T11A`, “normalised enrichment score” read 0.532.
Under “normalised enrichment score”, `Q7A` is recorded as 0.201.

Single results of other studies
For `PhoQ, residues 284 288 289 292 302 303 DDMDFR`, the fold induction was 0.997 and 0.879 (PhoP, residues 12 14 15 18 19 LWHCS (Escherichia coli, UniProt P23836); Sort-seq, refers to: YFP reporter; E. coli; PhoQ-PhoP variant library, added: 10 µM Mg2+; baseline: high Mg2+ state, higher = stronger signaling).
